Published values gathered from unrelated publications.
A part holds a random share of what one study measured.

Sample 1
Target: Ras GTPase-activating protein-binding protein 1, RRM domain (G3BP1, Homo sapiens, UniProt Q13283)
UniProt Q13283, sequence (whole entry, looked up): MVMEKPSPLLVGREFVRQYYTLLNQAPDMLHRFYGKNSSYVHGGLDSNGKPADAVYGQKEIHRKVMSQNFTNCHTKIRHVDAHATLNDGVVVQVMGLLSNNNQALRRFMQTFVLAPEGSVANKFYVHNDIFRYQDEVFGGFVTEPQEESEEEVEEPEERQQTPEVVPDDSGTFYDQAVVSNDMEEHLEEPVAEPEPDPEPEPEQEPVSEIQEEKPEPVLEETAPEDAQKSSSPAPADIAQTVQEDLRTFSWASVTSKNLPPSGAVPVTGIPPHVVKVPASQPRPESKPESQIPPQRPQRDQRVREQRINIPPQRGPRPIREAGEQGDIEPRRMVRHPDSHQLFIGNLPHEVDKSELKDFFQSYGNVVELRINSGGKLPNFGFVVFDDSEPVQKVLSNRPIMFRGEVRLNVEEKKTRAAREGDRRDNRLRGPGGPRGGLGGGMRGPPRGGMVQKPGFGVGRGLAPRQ
Technique: RNA Bind-n-Seq
Molecule type: RNA
Sample: in vitro
Tested at: 1 µM
Setting: whole 134-nt RNA, ends assumed
With: 150 mM KCl
Relative to: input library
Reading: higher = stronger binding
Shared flanks, not repeated: GGGAGUUCUACAGUCCGACGAUC … UGGAAUUCUCGGGUGUCAAGG
| Oligonucleotide | log2 enrichment |
| --- | --- |
| AGUCCUGUGCUACACAUCGUAUGUACCGAAUCGGGGCCCCGGGCCCCGGCCCCGGGGAAAGUAUUAUGUUACGCCGUUCGGAUCUGCACU | -0.755 |
| ACCAUGCAGGUGGGCAUCUUUGGGAAGUGGGGCAAGGGGGGGAUAGGGAGGCGGGUAACACUUUGGGAACAGGUGGUCCCAGGUCGUUUC | 0.615 |
| GCAGGAAGUAAAAACAAAUGGAAAUGCUUCGGAUAGUGGCAGGGGUGGGGGUUGCUAAGGAAAGGAAAGGAUGGGAGUGGGUAAAGAGUU | 1.24 |
| GUUUGAUGAUCGUGGACGGAGUGAUUACGAUGGCAUUGGCAGCCGUGGUGACAGAAGUGGCUUUGGCAAAUUUGAACGUGGUGGAAACAG | 0.936 |
| UGAACCUUCCAAUAGCAACCAAGAAAUAAACUCUGAUGACAGACGACCCCAAUGGAGACGAGAAGACCGAAUUCCUUACCAAGACAGAGA | -0.134 |
| CAAGUCCUGUGCUACACAUCGUAUGUACCGAAUCGGGGUUUGGGGUGGGGAGGGGAAAGUAUUAUGUUACGCCGUUCGGAUCUGCACUUC | 0.969 |
| UCCUGUGCUACACAUCGUAUGUACCGAAUCGGGGAAAAAGGGGAAAAAGGAAAAAGGGGAAAGUAUUAUGUUACGCCGUUCGGAUCUGCA | -0.145 |
| ACCAUGCAGGUGGGCAUCUUUGGGAAGUGGGGAAAGGGGGGGAUAGGGAGGGGGGUAACACUUUGGGAACAGGUGGUCCCAGGUCGUUUC | -0.436 |
| AAGUCCUGUGCUACACAUCGUAUGUACCGAAUCGGGAAAAGGGAAAAGGAAAAGGGAAAGUAUUAUGUUACGCCGUUCGGAUCUGCACUU | -0.0792 |
| UCAAGUCCUGUGCUACACAUCGUAUGUACCGAAUCGGGGUGGGGUGGGGAGGGGAAAGUAUUAUGUUACGCCGUUCGGAUCUGCACUUCC | 0.783 |
| UGGGGGGUGGAUUUUGUUUAUUUUUUUAGCUCAUUUCCAGGGGUGGGAAUUUUUUUUUAAUAUGUGUCAUGAAUAAAGUUGUUUUUGAAA | 2.04 |
| CUGUGCUACACAUCGUAUGUACCGAAUCGGGAAAAAAAGGGGAAAAAAAGGGAAAAAAAGGGAAAGUAUUAUGUUACGCCGUUCGGAUCU | 0.261 |
| AGUCCUGUGCUACACAUCGUAUGUACCGAAUCGGGUUUGGGAAAGGGUUUUUUUGGGAAAGUAUUAUGUUACGCCGUUCGGAUCUGCACU | 0.441 |
| AAGUCCUGUGCUACACAUCGUAUGUACCGAAUCGGGGAAAGGGGAGGGGUUUGGGGAAAGUAUUAUGUUACGCCGUUCGGAUCUGCACUU | 0.879 |

Sample 2
Target: Prothrombin, mature alpha-thrombin (F2, Homo sapiens, UniProt P00734)
Technique: aptamer microarray, sandwich
Molecule type: DNA with 2'F-ANA
Sample: in vitro
Tested at: 200 nM
Setting: whole 15-mer aptamer, many near background
With: Cy3 exosite-II aptamer, 400 nM
Reading: higher = stronger binding
Oligonucleotide: GGTTGGTGTGGTTGG
| Modification | mean fluorescence intensity [a.u.] |
| --- | --- |
| 2'F-ANA at 4 7 15 | 341 |
| 2'F-ANA at 1 2 3 4 5 9 10 13 14 15 | 48.7 |
| 2'F-ANA at 5 6 9 10 12 13 14 15 | 43.9 |
| 2'F-ANA at 3 4 5 7 9 10 13 14 15 | 53.8 |
| 2'F-ANA at 2 6 7 8 9 10 13 14 | 113 |
| 2'F-ANA at 1 3 6 8 11 13 15 | 226 |
| 2'F-ANA at 3 5 9 10 11 12 15 | 110 |
| 2'F-ANA at 1 2 3 4 5 6 7 9 10 14 15 | 55.9 |
| 2'F-ANA at 1 2 3 8 9 11 12 13 14 15 | 92.9 |
| 2'F-ANA at 2 3 5 6 8 15 | 104 |
| 2'F-ANA at 1 2 3 4 5 6 7 9 11 13 14 15 | 55.8 |
| 2'F-ANA at 1 2 5 9 10 11 12 13 15 | 51.1 |
| 2'F-ANA at 1 2 5 6 9 11 15 | 51.5 |
| 2'F-ANA at 4 5 7 8 9 11 | 61.3 |
| 2'F-ANA at 1 2 8 12 13 15 | 362 |
| 2'F-ANA at 2 4 5 6 7 8 11 13 | 52 |
| 2'F-ANA at 2 3 4 5 6 7 9 10 11 12 13 | 57.2 |
| 2'F-ANA at 1 3 4 10 11 12 | 137 |

Sample 3
Target: PABPC1L2, full length, GST fusion (mouse, UniProt A0ABA7IW68)
Technique: RNAcompete
Molecule type: RNA
Sample: in vitro
Tested at: 20 nM
Setting: 7-mer, probes averaged, single round
Relative to: mean of 7-mers
Reading: higher = stronger binding
Target sequence (chain): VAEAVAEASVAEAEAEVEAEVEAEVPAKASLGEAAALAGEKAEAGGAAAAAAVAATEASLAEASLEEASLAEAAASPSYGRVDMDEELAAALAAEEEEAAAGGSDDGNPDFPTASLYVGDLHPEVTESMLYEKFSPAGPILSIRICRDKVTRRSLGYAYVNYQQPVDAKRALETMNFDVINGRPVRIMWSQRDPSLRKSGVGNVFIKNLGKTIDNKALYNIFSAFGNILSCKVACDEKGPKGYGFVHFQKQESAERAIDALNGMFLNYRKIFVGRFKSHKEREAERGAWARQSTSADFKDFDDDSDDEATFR
| Oligonucleotide | 7-mer Z-score |
| --- | --- |
| CCCCCGA | -0.402 |
| GACACGA | 0.00979 |
| UCCGACC | -0.336 |
| CCAAGCG | -0.05 |
| CGGUACC | -0.262 |
| AACAACC | 0.517 |
| UAAAUCU | 0.49 |
| GGUGUGA | 0.0261 |
| UUAGUUC | -0.275 |
| UACAAGG | 0.0352 |
| GUCCAGC | -0.302 |
| GGGCAGU | 0.43 |
| GCAAACA | 1.36 |
| CUUGGCA | 0.0334 |
| GCGAGCA | 0.0352 |
| CCCACCU | -0.465 |
| UGACUUG | -0.235 |
| UCCUACU | -0.248 |
| CUCGUAA | -0.157 |
| UCCUGGC | -0.202 |
| UUCAAUC | -0.235 |
| CAGCUUA | -0.19 |

Sample 4
Target: RNA binding protein fox-1 homolog 2, RRM domain, GST-SBP tag (RBFOX2, Homo sapiens, UniProt O43251-10, residues 100-194)
Technique: RNA Bind-n-Seq
Molecule type: RNA
Sample: in vitro
Tested at: 365 nM
Setting: natural RNA segment, single round, ends assumed
Relative to: no-protein control
Reading: higher = stronger binding
Shared flanks, not repeated: GGGAGUUCUACAGUCCGACGAUC … UGGAAUUCUCGGGUGCCAA
Residues (chain): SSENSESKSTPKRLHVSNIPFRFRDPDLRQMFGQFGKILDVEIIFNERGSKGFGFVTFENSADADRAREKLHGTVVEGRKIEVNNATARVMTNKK
| Oligonucleotide | RBNS enrichment (R) |
| --- | --- |
| CCCCAACGCGUCCUCUCACACCGUCCACUGUGCGUUUGUAUGUGUCUGGGAUCCAGGGCAAUGUGAAUUUUCUUUUUAUUUGGGAGAUUGUUCACGGAAAACAGAUCUUC | 0.267 |
| AUAUCUGAUCCAAAUAUUAAAUAUCUGAUUUUAUAAAACAGUUUAAAUUGUCUUUUUAAAUUGCUAACAAGCAUCAGUUAUAUUUGAGCUUCAUUUUUCUUUUAUCCUGU | 0.441 |
| GCCCACCCUAUUCUAAGGAACCACAAUAACUUACUCUGGCCCCAGUGUUAAAACGAUCUUUCAGAUUUAGAGUGACUAUGUAAGAAUUUAGGAUUUCCUCUUUUCCAGGC | 0.271 |
| UAUCACAUCUUCACUGGCCCCUGUGGCCCUGCAUGUAGUAGGGGAGGCUUCAGUCAGCCCCUCACUGUGGUCCAAGAAUGCCACACACCUUUCCGUAGAUAUGCCGAUGG | 2.02 |
| UAAGUAUGAGCCUACUGUUUUGUUUCCUAGUCCCAUGGACAAGUAGCAUACCAGGGGGCAAGAAGCUGAGCUGCUGGGGAGAGUCAGGGGAACUAAGAGCUUAGAAGGAG | 1.42 |
| UCUUUUACCAGCCCAAAUACGUCAAAACUUUUUAUAUGAAUGUGGAAAUAAAGAAGAGACUAUUUCUAUAACCAUGGUGCUCAGUCGUUUCUAAUGGAAGCUCAGGCUUU | 1.41 |
| UCAAUAUUUUAUUCAAACUCUGUUGAGGCAUUUUACUAACCUUAUACCCUUUUUGGCCUGAAGACAUUUUAGAAUUUCCUAACAGAGUUUACUGUUGUUUAGAAAUUUGC | 0.544 |
| CGCCGGAGAAUUACCAUCCCCCCGCACCUCGCCUAUGGGGAGAAUGGAACUGGUAGGGGCGUUCCCCAGCCACCACCUCAGCUCCUCCUCCGAACUGCCCAUUGUGUCUA | 0.376 |
| UGGUGAUCCUGUACGGUGUGGUCUAUGAAUUGCUGCACUGCAAAGCCACACAGCUGCAAAACGUUGAAGAAAAUCAUUGAUGUAUAAAAAUUGCAGUAUCUUUCAAAUCA | 0.465 |
| CCCCUCAAACUCAAGUGUGAGCUCUGUGGACGGGUGGACUUUGCCUACAAGUUCAAGCGUUCCAAGCGCUUCUGUUCCAUGGCUUGUGCAAAGAGGUAUAAUGUGGGAUG | 0.369 |
| UGUUGUUGAAAUGAAAGGUAUUUUGGGGUUAUUUAUUAUGAAAACAACAUGCUCUUAAUGUUGAUUUUACAAUAUGAAGAGAUUAUUUAAAUAAAUUAUUGUUUUCAUUG | 0.807 |
| UCCCAAAUGCUUUUAGUGAACCGACUGUAUUUUUCCGAGGUAUCUCGUGUACAUGGUACUUCUUUCUGCUACAGCCGCCAAGUCUAGAGUGUUUACACUGGUUGAUGCUU | 0.33 |

Sample 5
Target: Histone acetyltransferase KAT6A, winged helix 2, GST fusion (KAT6A, Homo sapiens, UniProt Q92794, residues 85-181)
Technique: protein binding microarray
Molecule type: double-stranded DNA, one strand shown
Sample: in vitro
Tested at: not given
Setting: 8-mer, flanks averaged, mean of 2 arrays, mostly near background
Relative to: not given
Reading: higher = stronger binding
Target sequence (chain): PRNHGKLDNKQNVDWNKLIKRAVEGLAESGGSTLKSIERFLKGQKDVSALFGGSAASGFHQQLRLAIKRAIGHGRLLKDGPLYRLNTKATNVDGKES
| Oligonucleotide | E-score |
| --- | --- |
| CCCTAGCG | -0.116 |
| CACTGAGG | 0.0369 |
| CAAGCTTG | -0.123 |
| GGATTGCC | 0.185 |
| AACTGAGG | 0.0501 |
| ATGTCCAC | -0.0521 |
| CAAAGGAC | -0.169 |
| TCGTTTAA | -0.0592 |
| GCTAGGGA | -0.168 |
| CACATTCA | -0.217 |
| ATGGAGTG | -0.163 |
| CAATAAGC | 0.0143 |
| GCTTGAAC | 0.152 |
| AATAGCCG | -0.134 |
| ATCCACCA | -0.106 |
| CAGTCTAC | -0.293 |
| CTTAGGAC | -0.11 |
| ATCAATGC | 0.0421 |
| AATTCCGC | 0.0689 |
| AAATATCA | 0.166 |
| CCACCTTA | 0.0779 |
| GAACATGC | -0.0893 |
| CGTGGCCC | -0.0119 |
| TAGTAATA | 0.00351 |
| ACGTGAGC | -0.185 |

Some of these lines once more (sample 3):
| Oligonucleotide | 7-mer Z-score |
| --- | --- |
| GGGCAGU | 0.43 |
| GCAAACA | 1.36 |
| CUUGGCA | 0.0334 |
| GCGAGCA | 0.0352 |
| CCCACCU | -0.465 |
| UGACUUG | -0.235 |
| UCCUACU | -0.248 |
| CUCGUAA | -0.157 |
